Published values of several laboratories.
Lines come from different studies, so protocols differ.

Compound = COc1cccc(-c2n[nH]c(SCc3ccccn3)n2)c1OC; species = male Sprague-Dawley rat; matrix = plasma; route = intravenous; dose = 1 mg/kg; time = 8 h; notes = single dose; concentration = 49.8 ng/mL
Compound = CCOC(=O)[C@@]12C[C@@H]1[C@@H](n1ccc3c(NC)nc(C#Cc4ccc(Cl)s4)nc31)[C@H](O)[C@@H]2O; species = male Sprague-Dawley rat; matrix = plasma; route = intravenous; dose = 0.5 mg/kg; time = 30 min; concentration = 11.8 ng/mL
Compound = COc1ccc2c(=O)n(C)c(-c3ccccc3)nc2c1; species = male Sprague-Dawley rat; matrix = lung; route = oral; dose = 30 mg/kg; time = 2 h; notes = single dose; concentration = 23.4 ng/g
Compound = CCc1cc(-c2noc(-c3cc(OC)nc(C4CCCC4)c3)n2)cc(C)c1OC[C@@H](O)CO; species = Wistar rat; matrix = plasma; route = oral; dose = 0.1 mg/kg; time = 6 h; notes = single dose; concentration = 5.2 ng/mL
Compound = O=C1CCC(N2Cc3cc(CO)c(F)cc3C2=O)C(=O)N1 (centres unmarked); species = male CD-1 mouse; matrix = plasma; route = intravenous; dose = 1 mg/kg; time = 1 h; concentration = 36.7 ng/mL
Compound = Cc1noc(C)c1Cn1cc(N2C(=O)CN(Cc3cccc(O)c3)C2=O)cn1; species = male Sprague-Dawley rat; matrix = plasma; route = oral; dose = 30 mg/kg; time = 30 min; concentration = 38.5 ng/mL
Compound = NCc1cc2c(cc1F)C(=O)N(C1CCC(=O)NC1=O)C2 (centres unmarked); species = male CD-1 mouse; matrix = plasma; route = oral; dose = 10 mg/kg; time = 4 h; concentration = 16.3 ng/mL
Compound = O=c1nc(N2CCN(CC3CCCCC3)CC2)sc2c([N+](=O)[O-])cc(C(F)(F)F)cc12; species = CD-1 mouse; matrix = lung; route = oral; dose = 100 mg/kg; time = 24 h; concentration = 25.1 ng/mL

Some of these lines once more:
Compound = NCc1cc2c(cc1F)C(=O)N(C1CCC(=O)NC1=O)C2 (centres unmarked); species = male CD-1 mouse; matrix = plasma; route = oral; dose = 10 mg/kg; time = 4 h; concentration = 16.3 ng/mL
